Experimental data gathered from unrelated publications.
Every numbered part comes from another study and shows a few of its results, in no order.
Chain of UniProt O15294 (whole entry, looked up): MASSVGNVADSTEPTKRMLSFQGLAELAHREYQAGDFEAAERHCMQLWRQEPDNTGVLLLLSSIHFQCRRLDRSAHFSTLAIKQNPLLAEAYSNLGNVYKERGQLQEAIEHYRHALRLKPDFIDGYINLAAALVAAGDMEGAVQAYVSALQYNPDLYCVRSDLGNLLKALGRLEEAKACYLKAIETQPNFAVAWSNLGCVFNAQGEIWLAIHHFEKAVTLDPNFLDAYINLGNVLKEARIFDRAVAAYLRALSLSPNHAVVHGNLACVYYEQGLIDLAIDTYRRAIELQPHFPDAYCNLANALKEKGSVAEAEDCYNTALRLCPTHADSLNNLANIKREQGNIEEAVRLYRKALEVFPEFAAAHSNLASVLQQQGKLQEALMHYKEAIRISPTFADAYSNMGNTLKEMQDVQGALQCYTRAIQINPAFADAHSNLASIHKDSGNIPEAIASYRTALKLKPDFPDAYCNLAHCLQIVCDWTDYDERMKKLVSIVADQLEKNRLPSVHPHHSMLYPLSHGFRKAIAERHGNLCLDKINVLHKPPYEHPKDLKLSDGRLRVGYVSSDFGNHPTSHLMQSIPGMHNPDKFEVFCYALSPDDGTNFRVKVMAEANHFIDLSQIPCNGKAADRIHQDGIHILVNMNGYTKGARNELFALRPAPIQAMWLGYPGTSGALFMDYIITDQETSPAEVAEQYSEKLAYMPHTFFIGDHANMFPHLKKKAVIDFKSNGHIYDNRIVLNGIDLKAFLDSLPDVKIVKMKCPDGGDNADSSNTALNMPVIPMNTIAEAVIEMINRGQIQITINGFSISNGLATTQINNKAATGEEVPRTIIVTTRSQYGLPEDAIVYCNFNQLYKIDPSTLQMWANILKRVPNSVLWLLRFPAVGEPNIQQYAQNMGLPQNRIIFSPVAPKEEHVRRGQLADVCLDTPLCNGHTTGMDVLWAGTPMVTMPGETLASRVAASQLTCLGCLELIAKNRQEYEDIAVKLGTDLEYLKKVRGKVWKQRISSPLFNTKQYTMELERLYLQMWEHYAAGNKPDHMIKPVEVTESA

Sample 1
Target: RING finger protein unkempt homolog, zinc fingers 1-6, GST-SBP tag (UNK, Homo sapiens, UniProt Q9C0B0, residues 30-357)
Chain of UniProt Q9C0B0 (30-357, looked up): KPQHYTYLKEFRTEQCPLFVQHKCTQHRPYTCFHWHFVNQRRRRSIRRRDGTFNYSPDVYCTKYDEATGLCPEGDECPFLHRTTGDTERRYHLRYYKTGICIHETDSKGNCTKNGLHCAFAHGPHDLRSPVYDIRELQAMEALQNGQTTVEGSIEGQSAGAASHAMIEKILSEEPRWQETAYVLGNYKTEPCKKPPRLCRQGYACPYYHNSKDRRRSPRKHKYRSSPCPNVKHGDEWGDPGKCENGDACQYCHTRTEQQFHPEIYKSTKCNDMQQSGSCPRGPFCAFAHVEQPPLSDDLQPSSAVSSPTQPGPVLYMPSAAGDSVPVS
Method: RNA Bind-n-Seq
Form: RNA
Sample: in vitro
Tested at: not given
Setting: RNA with constant flanks, human-mouse chimeric sites, ends assumed
Baseline: input RNA pool
Direction: higher = stronger binding
Constant ends, left off below: GGGAGUUCUACAGUCCGACGAUC … CAACAGAGGAUUGAGCAUCA
Strand | bound/input enrichment [ratio]
AAAGUGGACUAUGGCGAGUACAUGGAUAAAAAUAAUGUGAGGCGGCAAGCAACAACAAUCAUAGCUGAUAACAUUAUAUUUCUGAGUGACCAGACAAAAGAGAAGGAAUAGAACGGAUGA | 1.45
UUAAUCCCCUUUACUGCUCCACCACUGCUCAUGGUAAUAACAAAGUCUUAUAUCCCCGUCCUAGCUUUCACUCAGAUGGCUUAUGGAGCCGGUUUCCUAGCUUUCUUGGGAGGGAUCAGA | 0.481
UCUUUAAAAAAAAAAUUACAGGAAAAUACAGUGCUUUCCCUCCCAUAGAUCCACGUUCAAGCUCAAAGAGCAAAGGCUUUGCACGGAGCUCAAACAUAAAAGAAAGAAAGAUUUCUGAGA | 0.547
AGAGAAAUGAGAAAGAAUCUUACACAAGAUGAGAUGCAAAGAAUGUCUACUAGAGUCCUUUUGGCGACUCUUUCCAUUCCUAUUACUCCUGAGCGAACUGAUAUUGCUCGACUUCUGGAU | 0.325
CUAAUCCCCUUUACUGCUCCCCCACUUGUCAUGCUGAUAACAAAGUCUUAUAUCCCCGUCCUAGCUUUCACUCAGAUGGCUUAUGGAGCCGGUUUCCUAGCUUUCUUGGGAGGGAUCAGA | 0.893
CUGUUUUGACAGCCACAAAUUCUUGGCAUGUAUUAAGGAAAAAAAAAAUCCCUGUUCAAGUAGUUUUUCCACCUAUCAGCACUGAGUAAAUGCCAUAACUCCGCGGAAAUGGUCUAAAUA | 0.226
CACGUGUCUGCAGUACUUGAUGUGGACUACUCUCCCACUGGGAAGGAGUUUGUGUCUGCCAGCUUUGAUAAGUCUAUUAGAAUCUUUCCUGUGGACAAGAGCCGAAGCAGGGAGGUAUAU | 0.239
CUUAAUGAUAUUUUGAGUGAAUAAAUGAAGCUAAAAUGUCUGCUUUUGGUACUACAUGCAUUAAUAAAAGGUUAAGUUUUGUUUUCCACUGAAGUACUAUUUAACAUCUCAGAAAAAAAC | 0.169

Sample 2
Target: Fragile X messenger ribonucleoprotein 1, C-terminal low-complexity region (Fmr1, Mus musculus, UniProt P35922)
Method: RNA Bind-n-Seq
Form: RNA
Sample: in vitro
Tested at: 200 nM
Setting: whole 134-nt RNA, ends assumed
With: 150 mM LiCl
Baseline: input library
Direction: higher = stronger binding
All molecules: 7-deaza-guanosine replaces G
Constant ends, left off below: GGGAGUUCUACAGUCCGACGAUC … UGGAAUUCUCGGGUGUCAAGG
Strand | log2 enrichment
UGGCCCUGGUGGCAUGCGGGGAGGAAGAGGUGGCCUCAUGGAUCGUGGUGGUCCCGGUGGAAUGUUCAGAGGUGGCCGUGGUAGAGACAG | -0.824
CACAGAUAACACGCACCCACACAGACACAGAGGGAAGGGGUUGGGAUGGGGACAGGGUGCACAGCAGGGCGGGGUAGGACCCCAGCCCCU | 0.596
CUGUGCUACACAUCGUAUGUACCGAAUCGGGGAAAAAAAGGGGAAAAAGGGGUUUUUGGGGAAAGUAUUAUGUUACGCCGUUCGGAUCUG | -0.481
CCUCAAGUCCUGUGCUACACAUCGUAUGUACCGAAUCGGGGAGGGAGGAGGGAAAGUAUUAUGUUACGCCGUUCGGAUCUGCACUUCCAG | -0.441
UGGCCCUGGUGGCAUGCGGUGAGGAAGAGGUGGCCUCAUGGAUCGUGGUGGUCCCGGUGGAAUGUUCAGAGGUGGCCGUGGUGGAGACAG | -0.37
GUCCUGUGCUACACAUCGUAUGUACCGAAUCAAACCCCCAAACCCCCAAACCCCCAAAAAAGUAUUAUGUUACGCCGUUCGGAUCUGCAC | -0.254
AAGUCCUGUGCUACACAUCGUAUGUACCGAAUCGGGGUUUUUGGGGUGGGGAGGGGAAAGUAUUAUGUUACGCCGUUCGGAUCUGCACUU | -0.17
UCCUGUGCUACACAUCGUAUGUACCGAAUCGGGGUUUGGGGUUUGGGGUUUUUUUGGGGAAAGUAUUAUGUUACGCCGUUCGGAUCUGCA | -0.719

Sample 3
Target: Sox-I, HMG box (Salpingoeca helianthica)
Method: Spec-seq
Form: double-stranded DNA, one strand shown
Sample: in vitro
Tested at: not given
Setting: whole probe, mean of replicates
Baseline: not given
Direction: lower = stronger binding
Constant ends, left off below: GAGTCGTCTCGTCAGCAC … CCGTAGAGCACTCAGGTC
Residues (chain): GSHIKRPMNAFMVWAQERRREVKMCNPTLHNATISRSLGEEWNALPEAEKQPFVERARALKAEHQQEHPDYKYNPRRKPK
Strand | relative binding energy [ln ratio]
CATTGGG | 0.93
TACTGTT | -0.807
CATATAA | 0.231
CAATGTT | -0.105
CATTGGT | 0.983
CACAGTT | -0.0762
ATATGTT | -0.379
CATTACG | 0.671

Other studies, line by line
Sequence | target | test | system | setting | scale | quantity | value
EWGHGAYMHHNHEGP | UDP-N-acetylglucosamine--peptide N-acetylglucosaminyltransferase 110 kDa subunit (OGT, Homo sapiens, UniProt O15294) | binding, phage display NGS | peptide | concentration not given | baseline: input library | enrichment fold change | 4.23

Repeated from above (sample 1):
Strand | bound/input enrichment [ratio]
AAAGUGGACUAUGGCGAGUACAUGGAUAAAAAUAAUGUGAGGCGGCAAGCAACAACAAUCAUAGCUGAUAACAUUAUAUUUCUGAGUGACCAGACAAAAGAGAAGGAAUAGAACGGAUGA | 1.45
UUAAUCCCCUUUACUGCUCCACCACUGCUCAUGGUAAUAACAAAGUCUUAUAUCCCCGUCCUAGCUUUCACUCAGAUGGCUUAUGGAGCCGGUUUCCUAGCUUUCUUGGGAGGGAUCAGA | 0.481
UCUUUAAAAAAAAAAUUACAGGAAAAUACAGUGCUUUCCCUCCCAUAGAUCCACGUUCAAGCUCAAAGAGCAAAGGCUUUGCACGGAGCUCAAACAUAAAAGAAAGAAAGAUUUCUGAGA | 0.547
